# Published values gathered from unrelated publications.
# Changes are numbered by the printed parent chain.
# FKBP3: FKBP3 1-74 (Homo sapiens, UniProt Q00688)
# Bhlhe40 full length assumed: Bhlhe40 full length assumed (Mus musculus, UniProt O35185)
# UniProt O35185, sequence (whole entry, looked up): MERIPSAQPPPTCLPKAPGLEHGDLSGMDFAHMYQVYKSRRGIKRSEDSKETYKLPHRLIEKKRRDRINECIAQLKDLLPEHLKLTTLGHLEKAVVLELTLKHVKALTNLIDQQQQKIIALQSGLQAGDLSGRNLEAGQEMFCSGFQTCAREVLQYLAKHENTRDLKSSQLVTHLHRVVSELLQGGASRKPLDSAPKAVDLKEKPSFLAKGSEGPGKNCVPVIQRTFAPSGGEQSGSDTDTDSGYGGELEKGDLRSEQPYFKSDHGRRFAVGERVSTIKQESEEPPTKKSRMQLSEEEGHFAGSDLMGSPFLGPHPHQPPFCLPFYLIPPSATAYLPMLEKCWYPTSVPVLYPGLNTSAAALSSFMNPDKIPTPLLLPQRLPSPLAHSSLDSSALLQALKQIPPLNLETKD
# P1: ITGA2 cytoplasmic domain peptide (Homo sapiens); WKLGFFKRKYEKM; partner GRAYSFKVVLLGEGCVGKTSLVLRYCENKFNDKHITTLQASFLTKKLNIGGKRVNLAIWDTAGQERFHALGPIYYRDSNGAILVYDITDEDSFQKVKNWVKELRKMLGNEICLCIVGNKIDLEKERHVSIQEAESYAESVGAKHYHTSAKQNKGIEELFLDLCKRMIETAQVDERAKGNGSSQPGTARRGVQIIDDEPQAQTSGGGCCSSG
# P2: SPAST MIT domain, 112-195 (Homo sapiens); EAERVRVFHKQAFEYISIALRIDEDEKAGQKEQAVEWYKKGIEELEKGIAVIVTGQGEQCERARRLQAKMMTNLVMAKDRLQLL; partner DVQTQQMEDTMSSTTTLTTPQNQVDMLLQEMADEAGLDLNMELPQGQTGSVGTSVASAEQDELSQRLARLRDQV
# P3: SCAP (Homo sapiens); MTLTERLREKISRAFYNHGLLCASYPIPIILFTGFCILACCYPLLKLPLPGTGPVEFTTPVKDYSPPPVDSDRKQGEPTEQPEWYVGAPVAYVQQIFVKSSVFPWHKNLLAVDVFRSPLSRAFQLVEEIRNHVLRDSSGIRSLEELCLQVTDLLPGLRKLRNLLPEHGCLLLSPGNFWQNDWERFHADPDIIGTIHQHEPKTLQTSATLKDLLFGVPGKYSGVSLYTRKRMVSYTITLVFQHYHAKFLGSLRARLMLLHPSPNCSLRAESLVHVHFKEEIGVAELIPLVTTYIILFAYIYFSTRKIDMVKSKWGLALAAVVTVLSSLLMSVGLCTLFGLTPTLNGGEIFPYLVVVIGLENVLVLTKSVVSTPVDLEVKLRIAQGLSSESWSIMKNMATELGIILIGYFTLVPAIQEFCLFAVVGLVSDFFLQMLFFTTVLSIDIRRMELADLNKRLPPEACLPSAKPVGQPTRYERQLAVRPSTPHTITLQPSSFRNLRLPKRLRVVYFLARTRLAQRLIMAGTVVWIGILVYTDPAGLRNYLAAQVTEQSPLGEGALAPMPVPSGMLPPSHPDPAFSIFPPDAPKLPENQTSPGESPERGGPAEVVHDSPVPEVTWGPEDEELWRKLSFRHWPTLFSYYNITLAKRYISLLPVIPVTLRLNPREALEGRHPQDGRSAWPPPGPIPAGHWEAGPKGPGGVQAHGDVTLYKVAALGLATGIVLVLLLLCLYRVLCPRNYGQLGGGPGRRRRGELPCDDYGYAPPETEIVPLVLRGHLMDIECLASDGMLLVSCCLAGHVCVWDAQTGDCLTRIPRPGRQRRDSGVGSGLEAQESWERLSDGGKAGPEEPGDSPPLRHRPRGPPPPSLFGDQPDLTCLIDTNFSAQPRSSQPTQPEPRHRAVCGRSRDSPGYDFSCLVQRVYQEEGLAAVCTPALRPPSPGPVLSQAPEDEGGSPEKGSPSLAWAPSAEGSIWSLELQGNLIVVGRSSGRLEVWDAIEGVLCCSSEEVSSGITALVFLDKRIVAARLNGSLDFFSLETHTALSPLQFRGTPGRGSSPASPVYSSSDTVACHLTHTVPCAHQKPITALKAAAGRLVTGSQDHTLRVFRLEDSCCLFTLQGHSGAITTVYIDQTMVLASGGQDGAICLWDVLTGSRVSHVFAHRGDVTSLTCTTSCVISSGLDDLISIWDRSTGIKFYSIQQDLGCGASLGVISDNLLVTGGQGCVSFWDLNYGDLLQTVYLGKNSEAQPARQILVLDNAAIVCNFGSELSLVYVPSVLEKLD
# P4: ZYX; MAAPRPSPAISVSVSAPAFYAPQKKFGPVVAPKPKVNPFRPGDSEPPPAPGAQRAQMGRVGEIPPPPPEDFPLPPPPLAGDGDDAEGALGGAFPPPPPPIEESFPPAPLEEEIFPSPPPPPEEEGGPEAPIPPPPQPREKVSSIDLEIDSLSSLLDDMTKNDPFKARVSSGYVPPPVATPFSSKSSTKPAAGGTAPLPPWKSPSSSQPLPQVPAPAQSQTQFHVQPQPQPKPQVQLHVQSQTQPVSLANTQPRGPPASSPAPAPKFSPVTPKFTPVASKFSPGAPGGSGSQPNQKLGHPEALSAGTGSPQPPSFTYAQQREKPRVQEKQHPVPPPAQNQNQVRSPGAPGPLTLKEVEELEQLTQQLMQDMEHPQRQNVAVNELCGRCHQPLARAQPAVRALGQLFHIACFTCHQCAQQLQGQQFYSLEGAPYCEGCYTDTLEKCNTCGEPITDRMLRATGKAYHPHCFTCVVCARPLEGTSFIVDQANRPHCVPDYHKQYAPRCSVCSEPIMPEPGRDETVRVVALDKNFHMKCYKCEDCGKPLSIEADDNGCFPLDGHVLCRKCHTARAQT
# UniProt Q92945, sequence (whole entry, looked up): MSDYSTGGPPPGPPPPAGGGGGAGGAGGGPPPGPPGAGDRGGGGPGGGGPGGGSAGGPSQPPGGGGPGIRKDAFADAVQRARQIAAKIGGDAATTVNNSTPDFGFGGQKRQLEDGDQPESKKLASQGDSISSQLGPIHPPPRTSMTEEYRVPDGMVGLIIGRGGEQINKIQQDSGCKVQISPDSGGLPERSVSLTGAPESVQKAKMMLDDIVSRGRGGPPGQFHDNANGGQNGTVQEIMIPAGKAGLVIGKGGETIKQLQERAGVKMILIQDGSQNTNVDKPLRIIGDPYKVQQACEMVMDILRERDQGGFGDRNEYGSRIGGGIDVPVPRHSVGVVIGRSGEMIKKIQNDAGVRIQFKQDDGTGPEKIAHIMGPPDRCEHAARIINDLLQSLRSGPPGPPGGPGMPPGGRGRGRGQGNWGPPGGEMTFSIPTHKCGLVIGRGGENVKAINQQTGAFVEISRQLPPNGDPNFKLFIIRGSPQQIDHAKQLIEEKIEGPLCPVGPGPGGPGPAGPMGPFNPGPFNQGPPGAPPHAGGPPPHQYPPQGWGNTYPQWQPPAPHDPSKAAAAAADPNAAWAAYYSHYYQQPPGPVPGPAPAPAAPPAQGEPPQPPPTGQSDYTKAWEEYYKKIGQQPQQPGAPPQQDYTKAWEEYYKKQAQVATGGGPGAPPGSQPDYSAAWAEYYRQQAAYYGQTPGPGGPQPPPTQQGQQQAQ
# UniProt O75417, sequence (whole entry, looked up): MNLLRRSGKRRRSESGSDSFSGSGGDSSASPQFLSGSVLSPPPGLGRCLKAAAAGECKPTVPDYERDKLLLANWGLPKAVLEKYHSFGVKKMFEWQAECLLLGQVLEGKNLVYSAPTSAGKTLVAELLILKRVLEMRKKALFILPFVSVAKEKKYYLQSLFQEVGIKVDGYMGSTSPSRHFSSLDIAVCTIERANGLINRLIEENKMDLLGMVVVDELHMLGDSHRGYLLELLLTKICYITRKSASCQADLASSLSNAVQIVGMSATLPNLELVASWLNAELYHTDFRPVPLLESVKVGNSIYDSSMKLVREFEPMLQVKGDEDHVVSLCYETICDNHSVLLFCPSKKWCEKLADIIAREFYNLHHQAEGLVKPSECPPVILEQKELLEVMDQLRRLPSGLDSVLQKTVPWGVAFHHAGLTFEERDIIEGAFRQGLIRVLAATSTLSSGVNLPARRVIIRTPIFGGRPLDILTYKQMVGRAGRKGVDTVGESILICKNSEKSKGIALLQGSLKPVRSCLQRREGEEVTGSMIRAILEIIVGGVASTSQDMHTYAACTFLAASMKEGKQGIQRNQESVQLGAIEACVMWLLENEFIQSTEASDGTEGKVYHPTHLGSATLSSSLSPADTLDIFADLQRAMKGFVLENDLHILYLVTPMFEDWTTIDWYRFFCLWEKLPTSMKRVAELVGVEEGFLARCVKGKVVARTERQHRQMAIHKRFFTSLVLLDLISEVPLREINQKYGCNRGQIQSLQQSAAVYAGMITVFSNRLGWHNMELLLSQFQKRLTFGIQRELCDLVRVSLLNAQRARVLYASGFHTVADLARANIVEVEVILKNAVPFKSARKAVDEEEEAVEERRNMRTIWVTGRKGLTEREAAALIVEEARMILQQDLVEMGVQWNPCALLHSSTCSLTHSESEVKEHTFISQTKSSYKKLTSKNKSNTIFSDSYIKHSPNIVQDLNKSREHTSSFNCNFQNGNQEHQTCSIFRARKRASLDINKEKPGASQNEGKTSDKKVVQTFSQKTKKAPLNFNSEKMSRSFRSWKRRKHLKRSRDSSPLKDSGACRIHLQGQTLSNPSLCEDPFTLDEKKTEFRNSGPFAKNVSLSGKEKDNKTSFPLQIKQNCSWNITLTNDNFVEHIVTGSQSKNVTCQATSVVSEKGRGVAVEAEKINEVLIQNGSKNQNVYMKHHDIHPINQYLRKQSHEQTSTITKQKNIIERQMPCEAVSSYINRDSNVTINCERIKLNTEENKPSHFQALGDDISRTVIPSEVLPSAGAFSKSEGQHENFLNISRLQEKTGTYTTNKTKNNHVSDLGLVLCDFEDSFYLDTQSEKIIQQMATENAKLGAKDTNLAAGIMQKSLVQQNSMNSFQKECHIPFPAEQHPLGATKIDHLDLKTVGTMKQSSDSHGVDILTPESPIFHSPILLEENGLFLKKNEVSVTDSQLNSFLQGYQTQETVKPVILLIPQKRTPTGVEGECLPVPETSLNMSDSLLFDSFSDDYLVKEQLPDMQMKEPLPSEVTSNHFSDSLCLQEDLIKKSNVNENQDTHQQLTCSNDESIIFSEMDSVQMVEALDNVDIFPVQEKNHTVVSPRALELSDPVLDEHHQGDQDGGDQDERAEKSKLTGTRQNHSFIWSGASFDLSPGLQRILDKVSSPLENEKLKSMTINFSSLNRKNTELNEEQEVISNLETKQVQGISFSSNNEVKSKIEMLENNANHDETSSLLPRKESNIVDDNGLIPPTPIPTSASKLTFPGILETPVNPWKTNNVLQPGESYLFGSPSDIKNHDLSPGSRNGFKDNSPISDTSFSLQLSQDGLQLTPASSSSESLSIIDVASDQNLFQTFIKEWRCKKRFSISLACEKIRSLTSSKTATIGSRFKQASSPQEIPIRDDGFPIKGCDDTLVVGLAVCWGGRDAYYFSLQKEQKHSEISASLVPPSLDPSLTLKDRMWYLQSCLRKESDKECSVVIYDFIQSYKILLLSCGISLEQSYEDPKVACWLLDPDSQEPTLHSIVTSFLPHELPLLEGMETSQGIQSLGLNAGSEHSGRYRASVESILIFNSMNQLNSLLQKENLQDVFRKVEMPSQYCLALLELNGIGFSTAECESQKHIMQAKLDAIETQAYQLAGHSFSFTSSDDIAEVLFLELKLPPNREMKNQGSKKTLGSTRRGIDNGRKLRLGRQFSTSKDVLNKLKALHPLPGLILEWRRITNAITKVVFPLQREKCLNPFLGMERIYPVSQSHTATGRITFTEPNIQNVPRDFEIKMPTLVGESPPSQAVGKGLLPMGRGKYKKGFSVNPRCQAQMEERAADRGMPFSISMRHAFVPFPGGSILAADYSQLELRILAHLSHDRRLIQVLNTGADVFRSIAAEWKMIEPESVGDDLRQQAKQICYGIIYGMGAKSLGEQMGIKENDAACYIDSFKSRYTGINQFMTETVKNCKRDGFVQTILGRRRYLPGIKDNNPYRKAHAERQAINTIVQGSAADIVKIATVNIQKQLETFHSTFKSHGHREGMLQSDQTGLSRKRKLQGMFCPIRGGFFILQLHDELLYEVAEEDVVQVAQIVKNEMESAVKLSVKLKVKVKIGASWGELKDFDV
# UniProt P42224, sequence (whole entry, unmodified, looked up): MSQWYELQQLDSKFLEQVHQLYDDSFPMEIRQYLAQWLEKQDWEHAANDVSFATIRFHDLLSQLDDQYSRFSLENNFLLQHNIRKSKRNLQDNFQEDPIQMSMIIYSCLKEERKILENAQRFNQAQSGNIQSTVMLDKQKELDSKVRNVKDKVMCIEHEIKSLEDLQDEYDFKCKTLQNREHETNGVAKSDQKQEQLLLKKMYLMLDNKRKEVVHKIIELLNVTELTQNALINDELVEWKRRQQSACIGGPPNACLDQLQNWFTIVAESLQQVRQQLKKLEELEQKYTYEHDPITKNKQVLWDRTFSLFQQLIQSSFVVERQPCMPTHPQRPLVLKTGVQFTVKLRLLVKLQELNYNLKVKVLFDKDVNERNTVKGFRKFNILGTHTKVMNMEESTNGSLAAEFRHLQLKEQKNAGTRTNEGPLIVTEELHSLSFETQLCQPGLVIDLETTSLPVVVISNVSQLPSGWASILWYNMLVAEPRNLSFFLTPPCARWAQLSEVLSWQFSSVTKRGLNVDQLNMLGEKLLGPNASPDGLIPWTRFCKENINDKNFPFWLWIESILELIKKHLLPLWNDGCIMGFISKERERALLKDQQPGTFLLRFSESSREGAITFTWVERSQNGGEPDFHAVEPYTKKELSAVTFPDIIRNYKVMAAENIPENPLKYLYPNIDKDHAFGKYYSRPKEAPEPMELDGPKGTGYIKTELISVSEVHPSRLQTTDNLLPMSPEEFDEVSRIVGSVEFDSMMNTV
# UniProt P05549, sequence (whole entry, looked up): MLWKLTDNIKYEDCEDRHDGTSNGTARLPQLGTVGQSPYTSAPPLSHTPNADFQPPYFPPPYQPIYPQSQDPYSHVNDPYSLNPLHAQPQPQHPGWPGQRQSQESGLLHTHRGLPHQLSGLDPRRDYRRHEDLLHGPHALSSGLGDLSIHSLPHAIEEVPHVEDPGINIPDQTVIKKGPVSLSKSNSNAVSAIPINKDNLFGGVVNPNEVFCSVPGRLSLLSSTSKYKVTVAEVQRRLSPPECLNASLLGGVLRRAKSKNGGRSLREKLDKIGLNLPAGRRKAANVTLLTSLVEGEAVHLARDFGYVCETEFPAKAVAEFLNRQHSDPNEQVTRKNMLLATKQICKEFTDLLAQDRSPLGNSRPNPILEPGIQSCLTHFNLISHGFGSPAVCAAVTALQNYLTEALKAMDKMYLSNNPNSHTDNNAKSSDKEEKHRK
Molecule,tested on,assay,test system,setting,scale,measurement,result
GAAGATAACGATATTTAAAA (dsDNA (Trichomonas vaginalis); 20-mer duplex),"MYB21 40-156 R84A (Trichomonas vaginalis, UniProt Q58HP3)",ITC,"double-stranded DNA, one strand shown",,,binding,no binding
GAATAGTCTCATTAACACCGGTTCCCGGAAAGATCATCAAGAGCACACGGG (dsDNA),"STAT1 132-713 A656C/N658C (Homo sapiens, UniProt P42224)",EMSA,"double-stranded DNA, one strand shown",,,binding,binds
GGAUGAGGUAGUAGGUUGUAUAGUUUUAGGGUCACACCCACCACUGGGAGAUAACUAUACAAUCUACUGUCUUUCC (structured RNA),"KHSRP 68-525 (Homo sapiens, UniProt Q92945)",CD titration,folded RNA,,,binding,binds
P1 K7A R8A,RAB21 residues 15-225 (Homo sapiens),fluorescence polarisation,,,"baseline: unchanged protein, higher = more binding",relative binding,7
RNA 1 GAGCCUGAGCUCAGGCUC / RNA 2 GAGCCUGAGCUCAGGCUC (dsRNA 18 bp palindromic duplex),FKBP3,NMR,double-stranded RNA,,,binding,binds
P2 F13A,CHMP1B residues 126-199 (Homo sapiens),SPR,,,,Kd,> 282 µM
P3 L343A,INSIG1 (Homo sapiens),co-IP,,"read off a plot, added: 25-HC",higher = more binding,signal,0.28
ACUCCCAAUUAUUAAUGA (ssRNA),"Unk 1-810 (Mus musculus, UniProt Q8BL48)",EMSA,RNA,,,binding,no binding
CTGTCAGCCCATGTGGCGTGGCCG (dsDNA),Bhlhe40 full length assumed,EMSA,"double-stranded DNA, one strand shown",not purified,,binding,no binding
P4 S142D S169C,YWHAG,GST pull-down,lysate,,"baseline: unchanged protein, higher = more binding",relative binding,3.35
CTGAAGTAATACCCCAGGATGTGAACAT (dsDNA),"TFAP2A full length assumed (Homo sapiens, UniProt P05549)","competitor, competition","double-stranded DNA, one strand shown",unlabeled excess,,binding,binds
"DNA 1 CCAACCGACCACACCCACCACCCTACCGCCTTTTTTTTTCCCGGG / DNA 2 GGCGGTAGGGTGGTGGGTGTGGTCGGTTGG (dsDNA; 3' overhang, 30 bp duplex)","POLQ 1-894 (Homo sapiens, UniProt O75417)",fluorescence anisotropy,double-stranded DNA,added: Mg2+ 5 mM,,binding,binds
RNA 1 GGAUGCCG / RNA 2 CGGCAUCC (dsRNA 8 bp duplex),FKBP3,NMR,double-stranded RNA,,,binding,binds
TGCTGATTGGCCATGTGCGCTACACCGAGGGGCGGGG (dsDNA),Bhlhe40 full length assumed,"competition with unlabelled DNA, competition EMSA","double-stranded DNA, one strand shown",not purified,,binding,binds
RNA 1 GCCUGAGCUCAGGC / RNA 2 GCCUGAGCUCAGGC (dsRNA 14 bp palindromic duplex),FKBP3,NMR,double-stranded RNA,,,binding,binds
GAUGGAGAUGGGCCCAUGAAUUGCAUUUUACUUUAAUC (ssRNA),"KHSRP full length assumed (Homo sapiens, UniProt Q92945)",UV crosslinking,RNA,,,binding,binds

# Excerpt of the above:
Molecule,tested on,assay,test system,setting,scale,measurement,result
GGAUGAGGUAGUAGGUUGUAUAGUUUUAGGGUCACACCCACCACUGGGAGAUAACUAUACAAUCUACUGUCUUUCC (structured RNA),"KHSRP 68-525 (Homo sapiens, UniProt Q92945)",CD titration,folded RNA,,,binding,binds
P1 K7A R8A,RAB21 residues 15-225 (Homo sapiens),fluorescence polarisation,,,"baseline: unchanged protein, higher = more binding",relative binding,7
